Measurements gathered from unrelated publications.
Each line is one published result; not all experiments were run side by side. Several values in a cell are separate wells, animals, samples, runs or records. ± gives the spread as reported.

Substance | target or system | assay | system | setting | how to read | measurement | value
QDEKVKESYV | human MAGI1-3/6 PDZ construct (MBP fusion) | automated holdup | peptide, crude extract | concentration not given, corrected by standard peak, unit not given | relative to: biotin control resin, higher = stronger binding | binding intensity | 0.776
ALLQWVSTV | Jurkat T cells expressing 1G4 TCR | NFAT-eGFP reporter, flow cytometry | peptide | concentration not given, HLA-A*02:01 NY-ESO system |  | reporter activation | 0.29%
triosephosphate isomerase |  | co-immunoprecipitation | human plasma | unit not given, together with: Band 3 peptide 1-56 bait | relative to: negative control | co-IP enrichment | 0.305
maraviroc | HBMEC | gene expression, qPCR |  | concentration not given, 24 h, together with: HIV infection plus Aβ42 | relative to: HIV plus Aβ42-treated cells, decrease | mRNA level | 5.4 fold
DNA 1 CACTGGCCGTCTTACGGTCGCTCTGCTCGACG / DNA 2 CGACCGTAAGACGGCCAGTG (dsDNA; 20 bp, 3' 12 nt overhang) | RECQL 63-592 R203A (Bos taurus, UniProt A0JN36) | fluorescence anisotropy | double-stranded DNA | together with: Mg2+ 3 mM |  | Kd | 6.8 ± 1.3 nM
Peginesatide | UT7/EPO | tyrosine phosphorylation, LC-MS/MS phosphoproteomics, GluC, refers to: STAT5B tyrosine 682 |  | 10 nM, 15 min, together with: 10 U/mL EPO | relative to: vehicle | phosphorylation level | 86.1 fold
human serum albumin |  | co-immunoprecipitation | human RBC membrane | unit not given, together with: Band 3 peptide 1-56 bait | relative to: negative control | co-IP enrichment | 1.08
SEKHFRETEV | human SCRIB PDZ3-4 tandem (MBP fusion) | automated holdup | peptide, crude extract | concentration not given, corrected by standard peak, unit not given | relative to: biotin control resin, higher = stronger binding | binding intensity | 0.981
cotadutide |  |  | C57BL/6J mouse, AMLN diet NASH model | dose not given, terminal |  | plasma triglycerides | 72 ± 5 mg/dL
NPDALPETLV | human SCRIB PDZ3-4 tandem (MBP fusion) | automated holdup | peptide, crude extract | concentration not given, uncorrected, unit not given | relative to: biotin control resin, higher = stronger binding | binding intensity | 0.169
ERK2 |  | co-immunoprecipitation | human RBC membrane | no crosslinker, unit not given, together with: Band 3 peptide 1-56 bait | relative to: negative control | co-IP enrichment | 0
GLGQWISRA | Jurkat T cells expressing 1G4 TCR | NFAT-eGFP reporter, flow cytometry | peptide | concentration not given, HLA-A*02:01 NY-ESO system |  | reporter activation | 0.13%
KITDFGRAKL | HLA class I histocompatibility antigen, A alpha chain, allele A*24:02 (Homo sapiens, UniProt P04439) | conformational ELISA | peptide | concentration not given | relative to: positive control peptide, direction not given | binding score | 13.4%
milbemycin oxime | Saccharomyces cerevisiae | cell growth | Pdr5 deleted, Cdr1 overexpressed | 2^-4.381 µg/mL |  | OD600 | 0.967 and 0.98 and 1.02
NRVDSKETEC | human MAGI1-3/6 PDZ construct (MBP fusion) | automated holdup | peptide, purified PDZ protein | concentration not given, unit not given | relative to: biotin control resin, higher = stronger binding | binding intensity | 0.0477
11-deoxycorticosterone | CYP11B2 (human) | substrate binding, stopped-flow global kinetic fitting | purified enzyme | model, 4-state, linear IF, together with: equimolar adrenodoxin |  | Kd | 2060 nM
GSGAGICTIV | human SCRIB PDZ3-4 tandem (MBP fusion) | automated holdup | peptide, crude extract | concentration not given, uncorrected, unit not given | relative to: biotin control resin, higher = stronger binding | binding intensity | 0.425
FNA / CGLSGLGVA-NH2 ([18F]FNA-labelled, C-amide) |  | gamma counting | peptide, glioblastoma mice, brown adipose tissue | 60 min, together with: CooP blocking, 500-fold excess |  | tissue uptake | 0.18 %ID/g
GLLEWVSMV | Jurkat T cells expressing 1G4 TCR | NFAT-eGFP reporter, flow cytometry | peptide | concentration not given, HLA-A*02:01 NY-ESO system |  | reporter activation | 0.24%
QSARYRDTEL | human MAGI1-3/6 PDZ construct (MBP fusion) | automated holdup | peptide, purified PDZ protein | concentration not given, unit not given | relative to: biotin control resin, higher = stronger binding | binding intensity | 0.0266
caspofungin |  |  | adult ICU patients, mITT, serum | dose not given, Baseline |  | magnesium | 0.8 mmol/L
insulin aspart |  | ELISA, refers to: total insulin aspart | human, type 1 diabetes, serum | subcutaneous, dose not given, least squares mean |  | AUC(0-t) | 1.29 nM·h
FKBP12 |  | co-immunoprecipitation | human RBC membrane | unit not given, together with: Band 3 peptide 1-56 bait | relative to: negative control | co-IP enrichment | 0

Substance | target or system | assay | system | setting | how to read | measurement | value
ILEAAKSIAAATSALVKAASAAQRE | vinculin head domain Vd1 | complex rupture, AFM single-molecule force spectroscopy | peptide | single traces, C-terminal pulling, 800 nm/s |  | rupture force FWHM upper side | 13.8 pN
Polymyxin B | Staphylococcus aureus |  | CMCC 26003 | concentration not given |  | NADH level | 3.8 pmol/µL and 4.64 pmol/µL and 3.52 pmol/µL
GEMVGQARILAQATSDLVNAIKDA | vinculin head domain Vd1 | complex rupture, AFM single-molecule force spectroscopy | peptide | double traces, C-terminal pulling, 800 nm/s |  | rupture force FWHM upper side | 9.14 pN
human retinal dehydrogenase 1 |  | co-immunoprecipitation | human RBC cytosol | DMTMM crosslinker, unit not given, together with: Band 3 peptide 1-56 bait | relative to: negative control | co-IP enrichment | 18700
epoetin alfa | UT7/EPO | RT-qPCR, refers to: EGR1 |  | concentration not given, 90 min, normalized to HPRT1 | relative to: vehicle | mRNA level | 63.6 fold
ACEQNPIYWARYADWLFTTPLLLLDLALLVDADEGT |  | ex vivo fluorescence imaging | peptide, BALB/c mice, 4T1 tumour-bearing | intravenous, 5 nmol, 24 h post-injection, background-corrected mean fluorescence | relative to: tumour over muscle | contrast index | 12.8 ± 5.7
calcium |  | ion current, two-electrode voltage clamp | Xenopus oocytes | 10 mM, -80 mV, together with: niflumic acid present |  | desensitization time constant | 7.47 s and 6.97 s and 10.1 s and 10.8 s
USP14 |  | co-immunoprecipitation | human RBC cytosol | unit not given, together with: Band 3 peptide 1-56 bait | relative to: negative control | co-IP enrichment | 0
NLLQWITQV | Jurkat T cells expressing 1G4 TCR | NFAT-eGFP reporter, fluorescence microscopy | peptide | concentration not given, HLA-A*02:01 NY-ESO system |  | reporter activation | 25.8%
MTVCNASQRQAHAQATAVSL | PC-9 | phage binding | peptide |  | relative to: targeting over control phage | selectivity ratio | 0.56 ± 0.29
CTCATTGTCT | Salmonella enterica Typhimurium | RNA-seq, refers to: SL1344_3728 transcript | peptide, SL1344 | 5 µM, 15 min | relative to: untreated control | log2 fold change | 2.51
colistin | Acinetobacter baumannii | broth microdilution | clinical isolate RKI-No_70/16 |  |  | MIC | 64 µg/mL
hemoglobin beta |  | co-immunoprecipitation | human RBC membrane | unit not given, together with: Band 3 peptide 1-56 bait | relative to: negative control | co-IP enrichment | 1.08
GLLQWVSVV | Jurkat T cells expressing 1G4 TCR | NFAT-eGFP reporter, fluorescence microscopy | peptide | concentration not given, HLA-A*02:01 NY-ESO system |  | reporter activation | 0.0116%
GSGAGIESNV | human MAGI1-2/6 PDZ construct (MBP fusion) | automated holdup | peptide, crude extract | concentration not given, uncorrected, unit not given | relative to: biotin control resin, higher = stronger binding | binding intensity | 0.137
GLLEWISLV | Jurkat T cells expressing 1G4 TCR | NFAT-eGFP reporter, fluorescence microscopy | peptide | concentration not given, HLA-A*02:01 NY-ESO system |  | reporter activation | 0.0081%
ACEEQNPWARYLEWLFPTETLLLEL |  | ex vivo fluorescence imaging | peptide, BALB/c mice, 4T1 tumour-bearing, kidney | intravenous, 5 nmol, 4 h post-injection | higher = more uptake | mean fluorescence intensity | 1050 ± 144 a.u.
hemoglobin alpha |  | co-immunoprecipitation | human RBC cytosol | DMTMM crosslinker, unit not given, together with: Band 3 peptide 1-56 bait | relative to: negative control | co-IP enrichment | 3280
CLTSTVQLIM | HLA class I histocompatibility antigen, A alpha chain, allele A*02:01 (Homo sapiens, UniProt P04439) | conformational ELISA | peptide | concentration not given | relative to: positive control peptide, direction not given | binding score | 31.6%
TLLQWVTQI | Jurkat T cells expressing 1G4 TCR | NFAT-eGFP reporter, flow cytometry | peptide | concentration not given, HLA-A*02:01 NY-ESO system |  | reporter activation | 78.8%
insulin degludec |  |  | human | subcutaneous, 0.4 IU/kg, 1 FC level, single dose, reference formulation |  | AUClast | 592 ± 89 ng·h/mL
TASPAKETSF | human SCRIB PDZ3-4 tandem (MBP fusion) | automated holdup | peptide, crude extract | concentration not given, corrected by standard peak, unit not given | relative to: biotin control resin, higher = stronger binding | binding intensity | 0.774
SLMQWVTQV | Jurkat T cells expressing 1G4 TCR | NFAT-eGFP reporter, fluorescence microscopy | peptide | concentration not given, HLA-A*02:01 NY-ESO system |  | reporter activation | 28.5%

A few entries again:
Substance | target or system | assay | system | setting | how to read | measurement | value
SEKHFRETEV | human SCRIB PDZ3-4 tandem (MBP fusion) | automated holdup | peptide, crude extract | concentration not given, corrected by standard peak, unit not given | relative to: biotin control resin, higher = stronger binding | binding intensity | 0.981
GLLEWISLV | Jurkat T cells expressing 1G4 TCR | NFAT-eGFP reporter, fluorescence microscopy | peptide | concentration not given, HLA-A*02:01 NY-ESO system |  | reporter activation | 0.0081%
MTVCNASQRQAHAQATAVSL | PC-9 | phage binding | peptide |  | relative to: targeting over control phage | selectivity ratio | 0.56 ± 0.29
